# Measured values pooled from the literature.
# Each line is one published result; not all experiments were run side by side. Several values in a cell are separate wells, animals, samples, runs or records. ± marks the error that the study gave.
Structure (SMILES),target or system,test,system,setting,scale,endpoint,result
CC[C@H](C)[C@@H]1NC(=O)[C@@H]2CCCN2C(=O)[C@H](CC(C)C)NC(=O)[C@H](CC(C)C)NC(=O)CNC(=O)[C@@H](NC(=O)[C@@H](NC(=O)[C@H](CC(=O)O)NC(=O)CNC(=O)[C@@H](NC(=O)[C@H](C)NC(=O)CNC(=O)[C@H](CCCCN)NC(=O)[C@H](CC(C)C)NC(=O)[C@H](CC(C)C)NC(=O)[C@H](CCCCN)NC(=O)CNC(=O)[C@@H](NC(=O)[C@@H](N)CC(C)C)C(C)C)C(C)C)C(C)C)CSSC[C@@H](C(=O)O)NC1=O,,"RNA-seq, measured: Ghrhr mRNA","mouse traumatic brain injury, frontal cortex and hippocampus",dose not given,baseline: TBI plus compound vs TBI,log2 fold change,-6.68
CC1(C)SC2C(NC(=O)C(NC(=O)C3=C(O)C(Cc4ccco4)NC3=O)c3ccccc3)C(=O)N2C1C(=O)O (centres unmarked),Escherichia coli,broth microdilution,ATCC 25922 wild type,no clavulanic acid,,MIC,6.25 µg/mL
COc1c(C)c2c(c(O)c1C/C=C(\C)CCC(=O)O)C(=O)OC2,J82,cell proliferation,bladder cancer,,,IC50,3.39 µM
C[C@H](CCCC(C)(C)O)[C@H]1CC[C@H]2[C@@H]3CC=C4C[C@@H](O)CC[C@]4(C)[C@H]3CC[C@]12C,NMDA receptor (rat),"NMDA-evoked peak current, potentiator, whole-cell patch clamp",cultured hippocampal neurons,"0.1 µM, with: NMDA 10 µM",,potentiation,9.9 ± 3.9%
Clc1ccc(-c2ccccc2Cl)cc1,"gap junction, rat","gap junctional communication, scrape loading dye transfer",WB-F344 rat liver epithelial,1 h,,IC50,27 µM
Cc1cccc(NC(=O)c2sc3nc(-c4cccs4)cc(C(F)(F)F)c3c2N)c1,Mycobacterium tuberculosis,growth inhibition,H37Rv LepB under-expressing,,,IC50,> 100 µM
COc1cccc(-c2cc(=O)c3ccccc3o2)c1N,RXFP1,,RXFP1-expressing cells,concentration not given,,basal cAMP level,no effect
CC(C)(C)c1cc(O)c2cc(Cc3ccccc3)c(=O)oc2c1,Schistosoma mansoni,microscopic viability score,adult worms,10 µM,,viability reduction,26%
CCCCCc1cc(O)c2c(c1)OC(C)(C)[C@@H]1CCC(C)=C[C@@H]21,,"antinociception (tail withdrawal), warm water tail withdrawal","ICR mouse, male",intravenous,,ED50,12 µmol/kg
C/C=C(/C)C(=O)O[C@H]1C(C)=C2[C@H]([C@@H]1OC(=O)CCCCCCC)[C@@](C)(OC(C)=O)C[C@H](OC(=O)CCC)[C@@]1(O)[C@H]2OC(=O)[C@@]1(C)O,HEK293T,"RNA-seq, measured: CEBPB mRNA",,"10 µM, 6 h",baseline: vehicle,log2 fold change,2.41
Nc1c(C(=O)NCc2ccccc2)sc2nc(-c3ccccc3)ccc12,Mycobacterium tuberculosis,growth inhibition,H37Rv LepB under-expressing,,,IC50,14 ± 10 µM
CCCCC1(CCCC)CN(c2ccccc2)c2cc(SC)c(OCC(=O)N[C@@H](C(=O)NCC(=O)O)c3ccccc3)cc2S(=O)(=O)C1,,measured: HDL cholesterol,"human, serum","5 mg once daily, day 9",,serum HDL-C,48.3 mg/dL
CC[C@@H](C)[C@@H](NC(=O)[C@@H](Cc1ccc(O)cc1)NC(=O)[C@H]1CCCN1C(=O)[C@@H](CCCNC(=N)N)NC(=O)[C@H](N)Cc1c[nH]cn1)C(=O)N[C@H](C)C(=O)N[C@H](Cc1c[nH]cn1)C(=O)N[C@H](CCCNC(=N)N)C(=O)N[C@H](CCCCNC(=O)c1cccc(S(=O)(=O)F)c1)C(=O)N[C@H](Cc1ccc(O)cc1)C(=O)N[C@H](CO)C(=O)N[C@H](Cc1ccccc1)C(N)=O,,ex vivo flow cytometry,"GL261-Luc brain tumour mice, tumour",dose not given,,IFN-γ+ CD4+ T cell frequency,4.55% and 4.34% and 8.34%
CNC(=O)Oc1cccc2c1OC(C)(C)C2O (centres unmarked),SH-SY5Y,"neurite outgrowth inhibition, phase-contrast imaging",,freely dissolved concentration,,EC10,4.81 µM
CS(=O)(=O)CCCn1c(Cn2c(=O)n(CC(F)(F)F)c3ccncc32)cc2cc(Cl)ccc21,respiratory syncytial virus,RT-qPCR,"hospitalized infants 1-24 months, nasal swab","oral, 6, 4.5 or 3 mg/kg daily, day 7, mid dose by age cohort",baseline: placebo,LS mean difference vs placebo,0.16 log10 copies/mL
O=c1c2cc(Cl)ccc2[nH]c(=S)n1Cc1ncc[nH]1,Mycobacterium tuberculosis,,PptT conditional knockdown,,,MIC90,33.4 µM
CC[C@H](C)[C@H](NC(=O)[C@H](C)NC(=O)[C@H](CCCCN)NC(=O)[C@H](CC(C)C)NC(=O)[C@H](C)NC(=O)[C@@H](NC(=O)[C@H](Cc1c[nH]cn1)NC(=O)[C@H](CC(C)C)NC(=O)[C@@H](NC(=O)[C@@H](NC(=O)[C@H](CCCCN)NC(=O)[C@H](C)NC(=O)[C@H](C)NC(=O)[C@H](CO)NC(=O)[C@H](CCCCN)NC(=O)[C@H](Cc1ccccc1)NC(=O)[C@@H](NC(=O)[C@H](CCCCN)NC(=O)[C@H](CC(C)C)NC(=O)[C@H](Cc1ccccc1)NC(=O)[C@H](CO)NC(=O)[C@H](CCCCN)NC(=O)[C@H](Cc1c[nH]c2ccccc12)NC(=O)[C@H](CCCCN)NC(C)=O)[C@@H](C)O)[C@@H](C)O)C(C)C)[C@@H](C)O)C(=O)N[C@@H](CO)C(=O)N[C@@H](CO)C(N)=O,Proteus,,,20 strains,,MIC90,> 64 µg/mL
COc1cc(CCC[P+](c2ccccc2)(c2ccccc2)c2ccccc2)c(OC)c2c1OCO2.[I-],RPMI-8226,SRB,,,,LC50,> -4 log M
COC(=O)c1cccc(-c2ccc3c(c2)C=C2C(=O)CCCC2O3)c1[N+](=O)[O-] (centres unmarked),Schistosoma mansoni,microscopic viability scoring,newly transformed schistosomula,"10 µM, 72 h, prescreen",,viability reduction,20%
COc1c(CCC[P+](c2ccccc2)(c2ccccc2)c2ccccc2)cc2c(c1OC)OCO2.[I-],HT-29,SRB,,,,GI50,-5.97 log M
COc1ccc(-c2cc(C(F)(F)F)c3c(N)c(C(=O)NCC45CC6CC(CC(C6)C4)C5)sc3n2)cc1,Mycobacterium tuberculosis,growth inhibition,H37Rv LepB under-expressing,,,IC50,0.36 ± 0.2 µM
Nc1ncnc2c1ncn2[C@@H]1O[C@@H]2COP(=O)(O)O[C@H]3[C@@H](O)[C@H](n4cnc5c(=O)[nH]cnc54)O[C@@H]3COP(=O)(O)O[C@H]2[C@H]1O,West Nile virus,"RNA sequencing, measured: non-integrin membrane-ECM interactions R-HSA-3000171",HFF-1 cells,"concentration not given, downregulated pathway",baseline: WNV-infected untreated cells,fold enrichment,7.19
Cc1c(C(=O)NC2CCC(C(F)(F)F)CC2)c(COc2cccc(OC(F)(F)F)c2)nn1CC(F)(F)F (centres unmarked),Schistosoma mansoni,microscopic viability scoring,newly transformed schistosomula,"10 µM, 72 h, prescreen",,viability reduction,0%
CC1(C)NC(=O)N(c2ccc(F)c(C(F)(F)F)c2)C1=O,Schistosoma mansoni,,NSG mouse,"oral, 100 mg/kg single dose, not statistically significant",,worm burden reduction,8%
COc1ccc(-c2cc(C(F)(F)F)c3c(N)c(C(=O)N4CC(OC)C4)sc3n2)cc1,Mycobacterium tuberculosis,growth inhibition,H37Rv LepB under-expressing,,,IC50,> 100 µM
COc1cccc2c1C(O)CC(C)(C(O)/C=C/C(=O)OC(C)(C)C)O2 (centres unmarked),Schistosoma mansoni,microscopic viability scoring,newly transformed schistosomula,"10 µM, 72 h, prescreen",,viability reduction,48.3%

# A few entries again:
Structure (SMILES),target or system,test,system,setting,scale,endpoint,result
COc1c(C)c2c(c(O)c1C/C=C(\C)CCC(=O)O)C(=O)OC2,J82,cell proliferation,bladder cancer,,,IC50,3.39 µM
C[C@H](CCCC(C)(C)O)[C@H]1CC[C@H]2[C@@H]3CC=C4C[C@@H](O)CC[C@]4(C)[C@H]3CC[C@]12C,NMDA receptor (rat),"NMDA-evoked peak current, potentiator, whole-cell patch clamp",cultured hippocampal neurons,"0.1 µM, with: NMDA 10 µM",,potentiation,9.9 ± 3.9%
Clc1ccc(-c2ccccc2Cl)cc1,"gap junction, rat","gap junctional communication, scrape loading dye transfer",WB-F344 rat liver epithelial,1 h,,IC50,27 µM
